Measured values collected from several papers.

For `CC[C@@H](C)[C@@H](N)C(=O)N[C@@H](CC(C)C)C(=O)N[C@@H](CCCNC(=N)N)C(=O)N[C@@H](Cc1c[nH]c2ccccc12)C(=O)N[C@@H](CO)C(=O)N[C@@H](CCCNC(=N)N)C(=O)N[C@@H](CCCCN)C(=O)N[C@@H](CC(C)C)C(=O)N1CCC[C@H]1C(N)=O`, the stability was greater than 8 h (human plasma; time remaining stable).
`CN(CCC#N)C1CCN(C(=O)Cn2cc(NC(=O)c3cnn4cccnc34)c(-c3cc(Cl)ccc3OC(F)F)n2)CC1`: stability “stable” (human plasma; 5 freeze-thaw cycles).
The stability of `O=C(N/N=C/c1ccccc1O)c1ccncc1` is reported as 97.4% (DMEM cell medium; 4 µM, 12 h, 5 °C, post-preparative, autosampler).
`O=C(NCCN1CCCC1)c1cc(-c2ccc(CN3CCOCC3)cc2)nc2ccc(F)cc12` has a stability of greater than 25 weeks (40 °C).
For `COC(=O)/C=C/c1cc(C(=O)NCc2ccc(C)cc2)cc(-c2ccc3ncnn3c2)c1`, stability read “stable” (simulated gastric fluid; 1 h).
For `COc1cc2c(cc1OC)[C@@H]1Cc3ccc(OC)c(OC)c3CN1CC2`, stability read “stable” (mouse liver and kidney samples; freeze-thaw, autosampler, storage conditions).
`CNC(=O)c1ccc(-c2cnc3ncc(Cc4ccc5ncccc5c4)n3n2)cc1F` gave a stability of no less than 24.7 h (human plasma; 24.7 h, ambient).
`CCC[C@H](N[C@@H](C)C(=O)N1[C@H](C(=O)O)C[C@@H]2CCCC[C@@H]21)C(=O)O` gave a stability of 94.1% (human plasma; 16.0 ng/mL, 30 h, 8 °C, autosampler, high QC).
For `C=C(NC(=O)c1csc(-c2nc3c(cc2O)-c2nc(cs2)C(=O)N[C@@H]([C@@H](C)O)C(=O)N/C(=C\C)c2nc(cs2)C(=O)N[C@H]2C[C@H](O)C(=O)OCc4cccc5[nH]c(c(C)c45)C(=O)SC[C@H](NC(=O)c4csc2n4)c2nc-3cs2)n1)C(N)=O`, stability read “stable” (HPLC; 24 h, pH 2.0–7.0, 25 °C).
`Cc1ccc(S(=O)(=O)n2cc3c4c2C(=O)C(NCc2ccc(Cl)cc2)=CC4=NCC3)cc1` — result for stability: “stable” (HPLC-MS/MS; rat plasma).
`O=C(NCCc1c[nH]c2ccccc12)C(=O)c1c[nH]c2ccc(F)cc12`: stability “stable” (up to 48 h, pH 4.5).

Excerpt of the above:
For `COc1cc2c(cc1OC)[C@@H]1Cc3ccc(OC)c(OC)c3CN1CC2`, stability read “stable” (mouse liver and kidney samples; freeze-thaw, autosampler, storage conditions).
For `COC(=O)/C=C/c1cc(C(=O)NCc2ccc(C)cc2)cc(-c2ccc3ncnn3c2)c1`, stability read “stable” (simulated gastric fluid; 1 h).
